Literature values that unrelated publications cite.
Lines come from different studies, so protocols differ. “And” joins repeats or separate records; there may be more than shown. ± marks the error that the study gave. ≈ marks a conversion by molar mass, not a printed value.
UniProt Q9Y5S2, sequence (whole entry, looked up): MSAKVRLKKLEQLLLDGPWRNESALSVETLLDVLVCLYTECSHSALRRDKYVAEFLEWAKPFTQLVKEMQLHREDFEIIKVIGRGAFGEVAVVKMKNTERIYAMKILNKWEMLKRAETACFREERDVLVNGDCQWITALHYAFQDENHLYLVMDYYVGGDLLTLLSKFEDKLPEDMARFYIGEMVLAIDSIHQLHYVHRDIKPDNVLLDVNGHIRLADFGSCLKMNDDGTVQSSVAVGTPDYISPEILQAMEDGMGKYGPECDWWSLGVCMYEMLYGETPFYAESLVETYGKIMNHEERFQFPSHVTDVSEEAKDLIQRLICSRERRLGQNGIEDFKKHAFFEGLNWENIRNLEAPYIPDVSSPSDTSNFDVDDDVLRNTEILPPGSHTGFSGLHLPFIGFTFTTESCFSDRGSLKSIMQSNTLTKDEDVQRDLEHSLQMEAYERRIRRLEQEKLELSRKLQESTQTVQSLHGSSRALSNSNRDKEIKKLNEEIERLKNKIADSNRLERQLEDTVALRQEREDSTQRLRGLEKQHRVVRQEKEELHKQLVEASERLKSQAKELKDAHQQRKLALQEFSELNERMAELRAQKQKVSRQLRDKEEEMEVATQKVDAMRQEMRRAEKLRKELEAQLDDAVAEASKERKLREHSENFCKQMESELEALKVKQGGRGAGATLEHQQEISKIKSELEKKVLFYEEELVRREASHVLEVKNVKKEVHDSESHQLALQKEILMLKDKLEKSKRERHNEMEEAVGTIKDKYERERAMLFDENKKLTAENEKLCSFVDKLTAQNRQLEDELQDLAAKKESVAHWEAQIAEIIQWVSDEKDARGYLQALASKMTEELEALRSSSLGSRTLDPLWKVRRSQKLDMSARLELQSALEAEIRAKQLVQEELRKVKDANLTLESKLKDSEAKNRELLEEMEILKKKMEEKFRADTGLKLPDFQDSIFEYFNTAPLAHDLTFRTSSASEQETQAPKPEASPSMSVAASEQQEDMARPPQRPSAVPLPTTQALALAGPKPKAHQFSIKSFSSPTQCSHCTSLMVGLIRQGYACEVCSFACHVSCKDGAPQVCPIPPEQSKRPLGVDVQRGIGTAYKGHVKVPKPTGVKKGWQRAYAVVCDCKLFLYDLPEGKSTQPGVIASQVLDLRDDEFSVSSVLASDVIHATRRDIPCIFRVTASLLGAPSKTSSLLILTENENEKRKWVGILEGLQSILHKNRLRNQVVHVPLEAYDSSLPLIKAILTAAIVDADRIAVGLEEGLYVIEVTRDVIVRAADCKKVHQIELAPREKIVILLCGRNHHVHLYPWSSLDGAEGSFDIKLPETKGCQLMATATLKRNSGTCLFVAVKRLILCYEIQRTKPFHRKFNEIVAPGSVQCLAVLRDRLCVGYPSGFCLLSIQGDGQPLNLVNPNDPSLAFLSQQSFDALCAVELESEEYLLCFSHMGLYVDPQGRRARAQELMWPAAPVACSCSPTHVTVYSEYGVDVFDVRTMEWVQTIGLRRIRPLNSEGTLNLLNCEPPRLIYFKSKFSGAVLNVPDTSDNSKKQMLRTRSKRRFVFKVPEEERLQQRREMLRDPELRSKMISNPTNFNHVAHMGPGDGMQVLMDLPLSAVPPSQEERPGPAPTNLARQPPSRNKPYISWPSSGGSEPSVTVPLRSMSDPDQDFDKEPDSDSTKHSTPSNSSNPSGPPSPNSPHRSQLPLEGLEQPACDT

| Structure (SMILES) | tested on | assay | system | setting | scale | measurement | result |
| --- | --- | --- | --- | --- | --- | --- | --- |
| O=C1C(CC[S+]([O-])c2ccccc2)C(=O)N(c2ccccc2)N1c1ccccc1 (stereo not drawn) |  |  | plasma | concentration not given, total, steady state |  | Cmax | 55.9 µM |
| COc1ccc(-c2ocnc2C(=O)NCCCc2ccc([18F])nc2)cc1Cl |  | PET | nonhuman primates |  |  | brain uptake | ~2 SUV |
| Nc1cc(C(F)(F)F)c(-c2nc(N3CCOCC3)nc(N3CCOCC3)n2)cn1 | CDC42BPB (Homo sapiens, UniProt Q9Y5S2) | enzyme activity |  | 10 µM | relative to: untreated | remaining activity | 89% |
| COc1c(N2C[C@@H]3CCCN[C@@H]3C2)c(F)cc2c(=O)c(C(=O)O)cn(C3CC3)c12 |  |  | human |  |  | free Cmax | 3770 nM |
| N=C(N)c1ncn([C@@H]2O[C@H](CO)[C@@H](O)[C@H]2O)n1 |  |  | human |  |  | oral bioavailability | 66% |
| N#Cc1ccc(C(c2ccc(C#N)cc2)n2cncn2)cc1 |  |  | rat, orthotopic C6 glioma, brain |  | relative to: tumoral over nontumoral region | concentration ratio | ~1.5 fold |
| Cc1ccc([C@@H]2O[C@H](CO)[C@@H](O)[C@H](O)[C@H]2O)cc1Cc1ccc(-c2ccc(F)cc2)s1 |  |  | human, preserved kidney function | 100 mg, steady state, mean |  | clearance | 16.4 L/h |
| Cn1c(=O)c2c(ncn2C)n(C)c1=O |  |  | human | average of reported values |  | plasma clearance | 1.26 mL/min/kg |
| Cc1cc(-c2nccc3c2ccn3CC(=O)Nc2ccc(-c3cnccn3)cn2)ccn1 |  |  | dog male | single dose |  | dose with tubular degeneration | 200 mg/kg |
| C[C@@H](Oc1ccc(S(C)(=O)=O)cc1C(=O)N1C[C@@H]2C[C@]2(c2cc(C(F)(F)F)on2)C1)C(F)(F)F |  |  | FaSSIF |  |  | solubility | 0.0185 mg/mL (≈ 36.1 µM) |
| O=C(c1cc(Cc2n[nH]c(=O)c3ccccc23)ccc1F)N1CCN(C(=O)C2CC2)CC1 |  |  | human | oral tablet, 200 mg twice daily, multiple dose |  | Cmin | 610 ng/mL |
| COCCc1ccc(OCC(O)CNC(C)C)cc1 (stereo not drawn) |  |  | human fasted | 50 mg multiple doses, day 5, mean |  | AUC(0-24 h) | 351 ng·h/mL |
| COc1cccc2c1C(=O)c1c(O)c3c(c(O)c1C2=O)C[C@@](O)(C(=O)CO)C[C@@H]3O[C@H]1C[C@H](N)[C@H](O)[C@H](C)O1 |  |  | plasma | concentration not given, total, steady state |  | Cmax | 1.63 µM |
| C[Si]1(C)O[Si](C)(C)O[Si](C)(C)O[Si](C)(C)O[Si](C)(C)O1 |  |  | 1-octanol/water | 23 °C |  | log KOW | 5.71 |
| CNC(=O)c1cc(Oc2ccc(NC(=O)Nc3ccc(Cl)c(C(F)(F)F)c3)cc2)ccn1 |  |  | plasma | concentration not given, total, steady state |  | Cmax | 21.5 µM |
| Cc1ccc(Nc2nccc(N(C)c3ccc4c(C)n(C)nc4c3)n2)cc1S(N)(=O)=O.Cl |  |  | supercritical CO2 |  |  | crossover pressure | 180 to 200 bar |
| CN/C(=N/CCSCc1nc[nH]c1C)NC#N |  |  | human liver microsomes |  |  | CLint | 2.87 µL/min/mg protein |
| COc1cc2nc(N(C)CCCNC(=O)C3CCCO3)nc(N)c2cc1OC (stereo not drawn) |  |  | human | concentration not given, clinical |  | diarrhoea incidence | 0% |
| c1ccc2c(c1)ccc1ccccc12 |  |  | zebrafish embryos, whole embryo | 96.07 ng/well, 48 hpf, single exposure |  | amount in tissue | 3.96 ng/well and 3.67 ng/well and 4.39 ng/well |
| FC(F)(F)c1ccc(CNc2ccc(Cc3c[nH]c4ncc(Cl)cc34)cn2)cn1 |  |  | patients, plasma | oral, 600 mg once daily, day 1, mean |  | AUC(0-24 h) | 56200 ng·h/mL |

| Structure (SMILES) | tested on | assay | system | setting | scale | measurement | result |
| --- | --- | --- | --- | --- | --- | --- | --- |
| CN(C)CCCN1c2ccccc2Sc2ccc(Cl)cc21 |  |  | liver microsomes 0.5 mg/mL | 1 µM |  | CLint, scaled | 55.9 mL/min/kg |
| C[Si](C)(C)O[Si](C)(C)C |  |  | 1-octanol/water | 25 °C |  | log KOW | 4.76 |
| Cc1ncc(CO)c(C=NNC(=O)c2ccccc2Cl)c1O |  |  | rabbit | intravenous, dose not given |  | half-life | 0.467 h |
| C=CC(=O)N(C)CCOc1c(N)ncnc1-c1cc(F)cc(NC(=O)c2ccc(C3CC3)cc2F)c1C |  |  | human | 400 mg once daily |  | AUC(0-last) | 977 ng·h/mL |
| COCCc1ccc(OCC(O)CNC(C)C)cc1 (stereo not drawn) |  |  | human |  |  | half-life | 3 to 4 h |
| CCOC(=O)C1=C(C)NC(C)=C(C(=O)OC)C1c1cccc(Cl)c1Cl (stereo not drawn) |  |  | water |  |  | solubility | < 1 mg/mL |
| CC(C)[C@H](N)C(=O)OCC(CO)OCn1cnc2c(=O)[nH]c(N)nc21 (stereo partly drawn) |  |  | monkey | 10 mg/kg |  | oral bioavailability | 58% |
| C[C@@H](Oc1cc(-c2cnn(C3CCNCC3)c2)cnc1N)c1c(Cl)ccc(F)c1Cl |  |  | FaSSIF | literature value |  | solubility | 0.743 mg/mL (≈ 1650 µM) |
| Nc1ccn([C@@H]2O[C@H](CO)[C@@H](O)C2(F)F)c(=O)n1 |  |  | metastatic pancreatic cancer patients | dose not given |  | grade 3 or higher diarrhoea | 1% |
| O=c1[nH]cnc2c1ncn2[C@H]1CC[C@@H](CO)O1 |  |  | mouse |  |  | oral bioavailability | 15% |
| COc1cc(Cc2cnc(N)nc2N)cc(OC)c1OC |  |  | human |  |  | t_half | 11.3 h |
| CNCc1cc(-c2ccccc2F)n(S(=O)(=O)c2cccnc2)c1 |  |  | human, plasma | 20 mg single dose, observed clinical data |  | Tmax | 1.5 h |
| O=C(O)c1cc(-c2ccc(F)cc2F)ccc1O |  |  | plasma | concentration not given |  | unbound Cmax | 0.49 µM |
| CC1(C)S[C@@H]2[C@H](NC(=O)[C@H](N)c3ccccc3)C(=O)N2[C@H]1C(=O)O | Pseudomonas aeruginosa |  | clinical isolate RKI-No_67/14 |  |  | MIC | > 16 mg/L |
| CNC(=O)c1c(C)oc2cc(Oc3ncnc4cc(OC)c(OC)cc34)ccc12 |  |  | feces | 5 mg radiolabelled, time not given |  | unchanged dose recovered | 5.34% |
| CN(C)C(=O)c1cc2cnc(Nc3ccc(N4CCNCC4)cn3)nc2n1C1CCCC1 |  | item: leukopenia | advanced solid tumour or lymphoma patients | dose not given, 3 weeks on 1 week off, any grade | relative to: patients | adverse event incidence | 21.6% |
| C/C(O)=C(\C#N)C(=O)Nc1ccc(C(F)(F)F)cc1 |  |  | supercritical CO2 |  |  | crossover pressure | 175 to 195 bar |
| Cc1cn([C@H]2C=C[C@@H](CO)O2)c(=O)[nH]c1=O |  |  | human | 0.67 mg/kg |  | oral bioavailability | > 80% |
| CCN(CC)CCNC(=O)c1c(C)[nH]c(/C=C2\C(=O)Nc3ccc(F)cc32)c1C |  |  | human |  |  | free Cmax | 13 nM |
| CC(C)(C)NCC(O)c1cc(O)cc(O)c1 (stereo not drawn) |  |  | human, plasma | inhaled, dose not given |  | Clast | 4.4 nM |

| Structure (SMILES) | tested on | assay | system | setting | scale | measurement | result |
| --- | --- | --- | --- | --- | --- | --- | --- |
| Cc1nn(C)cc1S(=O)(=O)NC(=O)c1ccc(-n2ccc(OCC(C)(C)C(F)(F)F)n2)nc1N1C[C@@H](C)CC1(C)C |  |  |  |  |  | logP octanol/water | 6 |
| C#C[C@]1(O)CC[C@H]2[C@@H]3CCC4=CC(=NO)CC[C@@H]4[C@H]3CC[C@@]21CC (mixture of isomers) |  |  | human, fed | 0.18 mg norgestimate, single dose |  | Cmax, mean | 657 pg/mL |
| [Ru+2].c1ccc(-c2ccnc3c2ccc2c(-c4ccccc4)ccnc23)cc1.c1ccc(-c2ccnc3c2ccc2c(-c4ccccc4)ccnc23)cc1.c1ccc(-c2ccnc3c2ccc2c(-c4ccccc4)ccnc23)cc1 |  |  | CD3OD |  |  | singlet oxygen quantum yield | 0.97 |
| CC[C@H](C)CCCCC(=O)N[C@@H](CCN)C(=O)N[C@H](C(=O)N[C@@H](CCN)C(=O)N[C@H]1CCNC(=O)[C@H]([C@@H](C)O)NC(=O)[C@H](CCN)NC(=O)[C@H](CCN)NC(=O)[C@H](CC(C)C)NC(=O)[C@@H](Cc2ccccc2)NC(=O)[C@H](CCN)NC1=O)[C@@H](C)O |  |  | rat, urine |  |  | urinary excretion | < 5% |
| CN1CCN(CCCCN2C(=O)CN(/N=C/c3ccc(-c4ccc(Cl)cc4)o3)C2=O)CC1 |  |  | human |  |  | free Cmax | 70 nM |
| CC(=O)O[C@H]1C(=O)[C@@]2(C)[C@H]([C@H](OC(=O)c3ccccc3)[C@]3(O)C[C@H](OC(=O)[C@H](O)[C@@H](NC(=O)c4ccccc4)c4ccccc4)C(C)=C1C3(C)C)[C@]1(OC(C)=O)CO[C@@H]1C[C@@H]2O |  |  | advanced urothelial cancer patients | 80 mg/m2 weekly, monotherapy |  | grade 3 peripheral neuropathy incidence | 3% |
| CNC(=O)CN(CCN(CCN(CC(=O)[O-])CC(=O)NC)CC(=O)[O-])CC(=O)[O-].[Gd+3] |  |  |  | 0.1 mmol/kg |  | half-life | 1.29 ± 0.26 h |
| Cn1c(Cn2ccc(C(F)(F)F)c(Oc3cc(Cl)cc(C#N)c3)c2=O)n[nH]c1=O |  |  | human | up to 48 weeks, trial | relative to: subjects | upper respiratory tract infection incidence | 9.4% |
| COc1cc(C(C)=O)ccc1OCCCN1CCC(c2noc3cc(F)ccc23)CC1 |  |  | water |  |  | solubility | < 1 mg/mL |
| CC(C)n1nc(-c2ccc3oc(N)nc3c2)c2c(N)ncnc21 |  |  | patients | dose not given, dose-expansion phase |  | hyperglycemia incidence | 60% |
| CC1=NN(c2ccccc2)C(=O)C1 |  |  | water |  |  | solubility | < 1 mg/mL |
| CC(C)(CO)c1cc2cc(NC(=O)C3(c4ccc5c(c4)OC(F)(F)O5)CC3)c(F)cc2n1C[C@@H](O)CO |  |  | human |  |  | fraction absorbed | 0.82 |
| Cc1ccc2c(c1)c1c(n2CCc2ccc(C)nc2)CCN(C)C1.Cl.Cl |  |  | water |  |  | solubility | < 1 mg/mL |
| N#C[C@@]1(c2ccc3c(N)ncnn23)O[C@H](CO)[C@@H](O)[C@H]1O |  |  | dog, plasma | intravenous, 2 mg/kg, 2 h, solution |  | plasma concentration | 949 ng/mL |
| Cc1cnc(N2CC3(CCOCC3)C2)c(C(=O)Nc2ccc(C(=O)N3CCc4cc(C(=O)Nc5c(C)cccc5F)sc4-c4ccccc43)cc2)c1 |  |  | human plasma |  |  | plasma protein binding | > 99% |
| O=C(CCCN1CC=C(n2c(=O)[nH]c3ccccc32)CC1)c1ccc(F)cc1 |  |  | water |  |  | solubility | < 1 mg/mL |
| C[C@]12CC[C@H](O)CC1=CC[C@@H]1[C@@H]2CC[C@]2(C)C(c3cccnc3)=CC[C@@H]12 |  |  | FaSSIF | literature value |  | solubility | 0.00783 mg/mL (≈ 22.4 µM) |
| COc1cc2nc(c1)CNCCNCCNC2 |  |  | aqueous solution | Cu(II) 1 µM, ligand 10 µM |  | pCu | 16.7 |
| CCc1nc(N)nc(N)c1-c1ccc(Cl)cc1 |  |  | water |  |  | solubility | < 1 mg/mL |
| CC(=O)Oc1ccccc1C(=O)O |  |  | plasma | literature data |  | free Cmax | 2400 nM |

A few entries again:
| Structure (SMILES) | tested on | assay | system | setting | scale | measurement | result |
| --- | --- | --- | --- | --- | --- | --- | --- |
| COc1cc(C(C)=O)ccc1OCCCN1CCC(c2noc3cc(F)ccc23)CC1 |  |  | water |  |  | solubility | < 1 mg/mL |
| CC(C)n1nc(-c2ccc3oc(N)nc3c2)c2c(N)ncnc21 |  |  | patients | dose not given, dose-expansion phase |  | hyperglycemia incidence | 60% |
| CC1=NN(c2ccccc2)C(=O)C1 |  |  | water |  |  | solubility | < 1 mg/mL |
| CC(C)(CO)c1cc2cc(NC(=O)C3(c4ccc5c(c4)OC(F)(F)O5)CC3)c(F)cc2n1C[C@@H](O)CO |  |  | human |  |  | fraction absorbed | 0.82 |
| Cc1ccc2c(c1)c1c(n2CCc2ccc(C)nc2)CCN(C)C1.Cl.Cl |  |  | water |  |  | solubility | < 1 mg/mL |
